Results collected from several papers.
Compare with care: the assays were run in different laboratories. Several values in a cell are separate wells, animals, samples, runs or records. ± marks the error that the study gave.

SMILES	target or system	assay	test system	conditions	scale	endpoint	result
COC1CN([C@H]2CC[C@H]([C@@]3(C)Oc4c(Cl)cc(C(=O)NCc5c(SC)cc(C)[nH]c5=O)c(C)c4O3)CC2)C1	–	RNA-seq, measured: CLDN4	human, whole blood	dose not given, 24 h	reference: pretreatment baseline	log2 fold change	2.24
COC1OC(C)C(O)C(OC2OC(C)C(O)C(OC3OC(C)C(O)C(OC4OC(C)C(O)C(OC5OC(C)C(O)C(OC6OC(C)C(O)C(OC7OC(C)C(O)C(OS(=O)(=O)O)C7OS(=O)(=O)O)C6OS(=O)(=O)O)C5OS(=O)(=O)O)C4OS(=O)(=O)O)C3OS(=O)(=O)O)C2OS(=O)(=O)O)C1OS(=O)(=O)O (stereo not drawn)	–	–	human plasma	128 µg/mL	–	prothrombin time	14.9 ± 0.2 s
CC(CCC(=O)NCc1ccc(C(=O)NO)cc1)C1CCC2C3C(O)CC4CC(O)CCC4(C)C3CCC12C (stereo not drawn)	–	measured: GCA	PCK rat (Pkhd1 mutant), portal blood	oral gavage, dose not given, 5 months	reference: total bile acids	relative abundance	8.76%
CN1CCC[C@]1(C)/C=C/S(=O)(=O)NC(=O)Nc1c2c(cc3c1CCC3)CCC2	–	–	human, whole blood ex vivo	12.5 mg twice daily, day 14, 36 h, multiple ascending dose, with: LPS and ATP	–	IL-18 inhibition	2.8%
COc1cc(/C=C2\CNC/C(=C\c3cc(Cl)c(O)c(OC)c3)C2=O)cc(Cl)c1O	–	ABTS scavenging	–	20 min	–	IC50	45 µg/mL
COC1OC(C)C(OC2OC(C)C(OS(=O)(=O)O)C(OC3OC(C)C(OS(=O)(=O)O)C(OS(=O)(=O)O)C3OS(=O)(=O)O)C2OS(=O)(=O)O)C(OS(=O)(=O)O)C1OS(=O)(=O)O (stereo not drawn)	–	–	human plasma	128 µg/mL	–	prothrombin time	15.2 ± 0.1 s
CC(C)(C)NCC(SS(=O)(=O)O)c1ccccc1 (stereo not drawn)	–	–	Schistosoma mansoni-infected mice	200 mg/kg single, day 42, perfusion day 56	reference: vehicle	liver weight decrease	25%
COC1OC(C)C(OC2OC(C)C(O)C(OC3OC(C)C(OC4OC(C)C(O)C(OC5OC(C)C(OC6OC(C)C(O)C(OC7OC(C)C(OC8OC(C)C(O)C(OC9OC(C)C(O)C(OS(=O)(=O)O)C9OS(=O)(=O)O)C8OS(=O)(=O)O)C(OS(=O)(=O)O)C7OS(=O)(=O)O)C6OS(=O)(=O)O)C(OS(=O)(=O)O)C5OS(=O)(=O)O)C4OS(=O)(=O)O)C(OS(=O)(=O)O)C3OS(=O)(=O)O)C2OS(=O)(=O)O)C(OS(=O)(=O)O)C1OS(=O)(=O)O (stereo not drawn)	–	–	human plasma	128 µg/mL	reference: control	prothrombin time prolongation	1.01 fold
CC(=O)[O-].O.O.O.O.[Ni+2].[O-]c1ccc(Br)cc1C=NCCN1CCOCC1	–	DPPH radical scavenging	–	160 µM	–	inhibition	38.3%
COC1OC(C)C(OS(=O)(=O)O)C(OC2OC(C)C(OS(=O)(=O)O)C(OC3OC(C)C(OS(=O)(=O)O)C(OC4OC(C)C(OS(=O)(=O)O)C(OC5OC(C)C(OS(=O)(=O)O)C(OC6OC(C)C(OS(=O)(=O)O)C(OC7OC(C)C(OS(=O)(=O)O)C(OC8OC(C)C(OS(=O)(=O)O)C(OC9OC(C)C(OS(=O)(=O)O)C(OC%10OC(C)C(OS(=O)(=O)O)C(OC%11OC(C)C(OS(=O)(=O)O)C(OS(=O)(=O)O)C%11O)C%10O)C9O)C8O)C7O)C6O)C5O)C4O)C3O)C2O)C1O (stereo not drawn)	–	–	human plasma	128 µg/mL	reference: control	prothrombin time prolongation	0.97 fold
CC(C)C[C@H](NC(=O)CNC(=O)[C@H](CCC(N)=O)NC(=O)[C@H](CC(C)C)NC(=O)[C@H](CC(C)C)NC(=O)[C@H](CCCNC(=N)N)NC(=O)[C@H](CCC(N)=O)NC(=O)[C@H](CC(C)C)NC(=O)[C@H](CCCNC(=N)N)NC(=O)[C@H](C)NC(=O)CNC(=O)[C@H](CCC(=O)O)NC(=O)[C@H](CCCNC(=N)N)NC(=O)[C@H](CC(C)C)NC(=O)[C@H](CCCNC(=N)N)NC(=O)[C@H](CO)NC(=O)[C@H](CC(C)C)NC(=O)[C@H](CCC(=O)O)NC(=O)[C@H](CO)NC(=O)[C@@H](NC(=O)[C@H](Cc1ccccc1)NC(=O)[C@@H](NC(=O)CNC(=O)[C@H](CC(=O)O)NC(=O)C(C)(C)NC(=O)[C@@H](N)Cc1c[nH]cn1)[C@@H](C)O)[C@@H](C)O)C(=O)N[C@@H](CC(C)C)C(=O)N[C@@H](CCC(N)=O)C(=O)NCC(=O)N[C@@H](CC(C)C)C(=O)N[C@H](C(=O)NCC(=O)N[C@@H](CCCCNC(=O)COCCOCCNC(=O)COCCOCCNC(=O)CC[C@H](NC(=O)CCCCCCCCCCCCCCCCC(=O)O)C(=O)O)C(N)=O)C(C)C	–	–	DIO C57BL/6J mice	sc, 300 nmol/kg twice daily, end of 8 days, not significant	–	liver triglyceride reduction	24%
CC[C@H](C)[C@H](NC(=O)[C@@H](NC(=O)c1ccnc(Cl)c1Cl)C(C)(C)C)C(=O)N[C@H](C(=O)N[C@H](C(=O)N[C@H](C(=O)N[C@@H](CCC(N)=O)C(=O)N[C@@H](Cc1c[nH]cn1)C(=O)N[C@H](CC(C)C)C(=O)N[C@@H](CO)C(=O)NCCOCCOCC(=O)N[C@@H](CCCCNC(=O)CC[C@@H]1NC(=O)[C@@H](CCCNC(=N)N)NC(=O)[C@H](CCCNC(=N)N)NC(=O)[C@@H](CCCNC(=N)N)NC(=O)[C@H](CCCNC(=N)N)NC(=O)[C@H](Cc2ccc3ccccc3c2)NC(=O)[C@@H](Cc2ccccc2)NC1=O)C(N)=O)[C@@H](C)O)[C@@H](C)CC)C(C)(C)O	–	–	mouse, acute lung injury, LPS-induced	intranasal, 3 mg/kg, 6 h, with: LPS 4 mg/kg intranasal	reference: vehicle	lung wet-to-dry weight ratio	decreased
CCCCCCCCCCCCCCCC(=O)OCC(CSC[C@H](N)C(=O)N[C@@H](CO)C(=O)N[C@@H](CCCCN)C(=O)N[C@@H](CCCCN)C(=O)N[C@@H](CCCCN)C(=O)N[C@@H](CCCCN)C(=O)NCCCCCC(=O)N[C@@H](CCCCN)C(=O)N[C@@H](CC(C)C)C(=O)N[C@H](C(=O)N[C@@H](Cc1ccccc1)C(=O)N[C@@H](Cc1ccccc1)C(=O)N[C@@H](Cc1ccc2ccccc2c1)C(=O)O)C(C)C)OC(=O)CCCCCCCCCCCCCCC (stereo partly drawn)	–	thioflavin S staining	APP/PS1 transgenic mouse, hippocampus	intrahippocampal, 10 d, unit not given	reference: injected over adjacent side	amyloid plaque load	0.665 and 0.321 and 0.409 and 0.52 and 0.368
CCN(C(=O)c1cc(F)ccc1Oc1nncnc1N1CCC2(C1)CN([C@H](CCCN(C)CCOC)C(C)C)C2)C(C)C	–	–	mouse, sample A AML PDX model	100 mg/kg	–	increase in life span	149%
CCC(CC)n1c(Cc2cccs2)nc2cc(C(=O)N[C@@H](CC(=O)O)c3ccccc3)ccc21	–	exercise performance	mouse HFpEF model (high-fat diet plus L-NAME, 7 weeks)	intraperitoneal, 20 mg/kg/day, 2 weeks	–	running distance	increased
O=C(N/N=C/c1cc[n+](CC2CC2)c2ccccc12)c1ccc2ccc(C(=O)N/N=C/c3cc[n+](CC4CC4)c4ccccc34)nc2n1	MYC parallel G4 DNA	FRET melting	–	1 µM, DNA 0.2 µM	–	ΔTm	15.8 °C
COc1ccc(NC(=O)c2ccc3[nH]c(-c4ccc(N(C)C)cc4)nc3c2)cn1	–	–	CT26, BALB/c nude mice, subcutaneous graft	dose not given, day 14	–	tumour volume	1100 mm3 and 2150 mm3 and 2430 mm3 and 2140 mm3 and 2110 mm3 and 1820 mm3
O=C(N/N=C/c1cc[n+](Cc2ccccc2)c2ccccc12)c1ccc2ccc(C(=O)N/N=C/c3cc[n+](Cc4ccccc4)c4ccccc34)nc2n1	hp2 hairpin duplex DNA	FRET melting	–	1 µM	–	ΔTm	1.1 ± 0.4 °C
COC1OC(C)C(OS(=O)(=O)O)C(OC2OC(C)C(OS(=O)(=O)O)C(OC3OC(C)C(OS(=O)(=O)O)C(OC4OC(C)C(OS(=O)(=O)O)C(OC5OC(C)C(OS(=O)(=O)O)C(OS(=O)(=O)O)C5OS(=O)(=O)O)C4OS(=O)(=O)O)C3OS(=O)(=O)O)C2OS(=O)(=O)O)C1OS(=O)(=O)O (stereo not drawn)	–	–	human plasma	128 µg/mL	–	prothrombin time	15.2 ± 0.2 s
CCOC(=O)CCCCC1NCCc2ccc(O)c(O)c21 (stereo not drawn)	–	ABTS scavenging	–	10 min, dark	–	IC50	5.98 µM
COC1OC(C)C(OS(=O)(=O)O)C(OC2OC(C)C(OS(=O)(=O)O)C(OC3OC(C)C(OS(=O)(=O)O)C(OC4OC(C)C(OS(=O)(=O)O)C(OS(=O)(=O)O)C4OS(=O)(=O)O)C3OS(=O)(=O)O)C2OS(=O)(=O)O)C1OS(=O)(=O)O (stereo not drawn)	–	–	human plasma	128 µg/mL	–	prothrombin time	15 ± 0.4 s
Cc1cnc(Nc2ccc(OCCN3CCCC3)cc2)nc1Nc1cccc(S(=O)(=O)NC(C)(C)C)c1	–	AlphaScreen signal, AlphaScreen counter screen	His6 peptide without bromodomain	50 µM, assay interference check	–	inhibition	43%
CC(C)C[C@H](NC(=O)[C@H](CC(=O)O)NC(=O)CNC(=O)[C@@H](N)CCCNC(=N)N)C(=O)N[C@@H](C)C(=O)N[C@H](C(=O)N[C@@H](CC(C)C)C(=O)N[C@@H](CCCNC(=N)N)C(=O)N[C@@H](CCC(N)=O)C(=O)N[C@@H](CC(C)C)C(=O)N[C@@H](C)C(=O)N[C@@H](CCC(N)=O)C(=O)N[C@@H](CCC(=O)O)C(=O)N[C@@H](CC(=O)O)C(=O)NCC(=O)N[C@H](C(=O)N[C@H](C(=O)NCC(=O)N[C@H](C(=O)N[C@@H](CCCNC(=N)N)C(=O)NCCOCCOCCOCCOCCOCCOCCOCCOCCOCCOCCOCCOCCC(=O)N[C@@H](CS)C(N)=O)C(C)C)C(C)C)C(C)C)[C@@H](C)O	–	ex vivo NIR imaging	NOD/SCID mice, xenograft, H2009 xenograft	intravenous, 30 µg, 24 h	reference: H460 xenograft	fluorescence signal ratio	21.5 and 49.5 and 20.8
COC1OC(C)C(OC2OC(C)C(O)C(OC3OC(C)C(OC4OC(C)C(O)C(OC5OC(C)C(O)C(OS(=O)(=O)O)C5OS(=O)(=O)O)C4OS(=O)(=O)O)C(OS(=O)(=O)O)C3OS(=O)(=O)O)C2OS(=O)(=O)O)C(OS(=O)(=O)O)C1OS(=O)(=O)O (stereo not drawn)	–	–	human plasma	128 µg/mL	–	prothrombin time	14.4 ± 0.5 s
O=C(NS(=O)(=O)c1cccs1)c1cc2ccccc2n1Cc1ccc(Br)c2ccccc12	–	–	mouse, acute hyperuricaemia model	1 mg/kg	–	serum uric acid	205 ± 26.5 µM
COC1OC(C)C(OS(=O)(=O)O)C(OC2OC(C)C(OS(=O)(=O)O)C(OC3OC(C)C(OS(=O)(=O)O)C(OC4OC(C)C(OS(=O)(=O)O)C(OS(=O)(=O)O)C4O)C3O)C2O)C1O (stereo not drawn)	–	–	human plasma	128 µg/mL	reference: control	prothrombin time prolongation	1 fold
Nc1nc2cc(CC[C@H]3C[C@@H](n4ccc5c(N)ncnc54)[C@H](O)[C@@H]3O)ccc2cc1Br	–	–	NCI-H441 xenograft, mouse	1.0 mg/kg/day, day 38	–	tumour volume	378 ± 64 mm3

Excerpt of the above:
SMILES	target or system	assay	test system	conditions	scale	endpoint	result
COc1cc(/C=C2\CNC/C(=C\c3cc(Cl)c(O)c(OC)c3)C2=O)cc(Cl)c1O	–	ABTS scavenging	–	20 min	–	IC50	45 µg/mL
COC1OC(C)C(OC2OC(C)C(OS(=O)(=O)O)C(OC3OC(C)C(OS(=O)(=O)O)C(OS(=O)(=O)O)C3OS(=O)(=O)O)C2OS(=O)(=O)O)C(OS(=O)(=O)O)C1OS(=O)(=O)O (stereo not drawn)	–	–	human plasma	128 µg/mL	–	prothrombin time	15.2 ± 0.1 s
CC(C)(C)NCC(SS(=O)(=O)O)c1ccccc1 (stereo not drawn)	–	–	Schistosoma mansoni-infected mice	200 mg/kg single, day 42, perfusion day 56	reference: vehicle	liver weight decrease	25%
COC1OC(C)C(OC2OC(C)C(O)C(OC3OC(C)C(OC4OC(C)C(O)C(OC5OC(C)C(OC6OC(C)C(O)C(OC7OC(C)C(OC8OC(C)C(O)C(OC9OC(C)C(O)C(OS(=O)(=O)O)C9OS(=O)(=O)O)C8OS(=O)(=O)O)C(OS(=O)(=O)O)C7OS(=O)(=O)O)C6OS(=O)(=O)O)C(OS(=O)(=O)O)C5OS(=O)(=O)O)C4OS(=O)(=O)O)C(OS(=O)(=O)O)C3OS(=O)(=O)O)C2OS(=O)(=O)O)C(OS(=O)(=O)O)C1OS(=O)(=O)O (stereo not drawn)	–	–	human plasma	128 µg/mL	reference: control	prothrombin time prolongation	1.01 fold
